Measured values collected from several papers.
Compare with care: the assays were run in different laboratories. ± gives the spread as reported.

For CC[C@H](C)[C@@H]1NC(=O)[C@H](Cc2ccc(O)cc2)NC(=O)[C@@H](N)CSSC[C@@H](C(=O)NCC(=O)N[C@@H](CCCCNC(=O)COCCOCCNC(=O)COCCOCCNC(=O)CC[C@H](NC(=O)CC[C@H](NC(=O)CCCCCCCCCCCCCCCCC(=O)O)C(=O)O)C(=O)O)C(=O)NCC(N)=O)NC(=O)[C@H](CC(N)=O)NC(=O)[C@H](CCC(N)=O)NC1=O, “plasma level relative to Cmax” read > 50% (mass spectrometry; C57BL/6 mice; intraperitoneal, 1 mg/kg, 24 h).
Under “subjects with severe TEAE”, CC[C@H](C)C(=O)N1CCC(NC(=O)Nc2ccc(OC(F)(F)F)c(F)c2)CC1 is recorded as 0% (healthy volunteers; oral, 16 mg single dose, 14 (unit not given)).
With CC[C@H](C)[C@H](N)C(=O)N[C@@H](CC(N)=O)C(=O)N[C@@H](Cc1c[nH]cn1)C(=O)N[C@H](C(=O)NCC(=O)NCC(=O)N[C@H](C(=O)NCC(=O)NCC(=O)N[C@@H](C)C(=O)N[C@H](C(=O)N[C@@H](CCSC)C(=O)N[C@@H](C)C(=O)N1CCC[C@H]1C(=O)N[C@H](C(=O)N[C@@H](C)C(=O)N[C@H](C(=O)N[C@H](C(=O)N[C@@H](CCCNC(=N)N)C(=O)N[C@@H](CCC(N)=O)C(=O)N[C@@H](CC(C)C)C(=O)N[C@H](C(=O)NCC(=O)NCC(=O)N[C@@H](CS)C(=O)NCC(=O)NCC(=O)NCC(=O)N[C@@H](CCCCN)C(=O)N[C@@H](CCC(=O)O)C(=O)N[C@H](C(=O)N[C@@H](C)C(=O)N[C@@H](C)C(=O)N[C@@H](C)C(=O)N[C@@H](CCCCN)C(=O)N[C@@H](Cc1ccccc1)C(=O)N[C@@H](CCC(=O)O)C(=O)N[C@@H](CCCNC(=N)N)C(=O)N[C@@H](CCC(N)=O)C(=O)N[C@@H](Cc1c[nH]cn1)C(=O)N[C@@H](CCSC)C(=O)N[C@@H](CC(=O)O)C(=O)N[C@@H](CO)C(=O)O)[C@@H](C)O)C(C)C)[C@@H](C)O)C(C)C)C(C)C)[C@@H](C)CC)[C@@H](C)O)C(C)C the particle size was 47 ± 23 nm (dynamic light scattering; phosphate buffer; 25 µM, pH 7.4, 25 °C).
For CC(C)[C@H](NC(=O)CNC(=O)[C@H](CCC(N)=O)NC(=O)[C@H](C)N)C(=O)O, “definitely drug-related adverse events” read 0% (healthy human; intravenous, 1 mg/kg single dose; reference: subjects).
For Cc1ccc2ccc3ccc(C)nc3c2n1.O.[99Tc+].[C-]#[O+].[C-]#[O+].[C-]#[O+], the capacity factor was 4.4 (RP-HPLC C18 column, measured: aqua complex; MeCN:water 40:60, 0.1% TFA; isocratic elution).
The AUC of COc1cc(NC(=O)C(=O)c2c(C)n(Cc3ccc(Cl)cc3)c3ccc(C)cc23)ccn1 is reported as 1670 ng·h/mL (female cynomolgus monkey, plasma; intravenous, 1 mg/kg).
O=C([O][Ti+2][O]C(=O)c1ccc([P+]([Au-][Cl])(c2ccccc2)c2ccccc2)cc1)c1ccc([P+]([Au-][Cl])(c2ccccc2)c2ccccc2)cc1.c1cc[cH-]c1.c1cc[cH-]c1 has an MTD of 10 mg/kg/day (general toxicity; mouse; subcutaneous).
CC1N=C(c2ccccc2F)c2cc(Br)ccc2-n2cnc(C(=O)OC3OC(CO)C(O)C(O)C3O)c21 (stereo not shown) — result for “excretion in urine and feces”: 46 ± 4.1% (Swiss Webster mouse; intravenous, 250 µg of parent drug, 0 to 48 h; reference: dose).
With CN(C)C(CNC(=O)Nc1cc(C(F)(F)F)ccc1N1CCOCC1)c1ccncc1 (stereo not shown) the serum creatinine was 0.2 mg/dL (mouse, serum; intraperitoneal, 240 mg/kg single dose).
For Cc1cc(Nc2nc(C[C@@]3(C(=O)O)CCN(Cc4cccc(Cl)c4F)[C@H](C)C3)cc(C)c2F)n[nH]1, the clearance was 0.729 mL/min/kg (Sprague-Dawley rat, both sexes, plasma; intravenous, 0.5 mg/kg).
